Measured values of several laboratories.
Lines come from different studies, so protocols differ. ± marks the error that the study gave.

| Molecule | organism | assay | test system | conditions | MIC |
| --- | --- | --- | --- | --- | --- |
| CC[C@H](C)C[C@H](C)CCCCCCCCC(=O)N[C@H]1C[C@@H](O)[C@@H](NCCN)NC(=O)[C@@H]2[C@@H](O)CCN2C(=O)[C@H]([C@H](O)CCN)NC(=O)[C@H]([C@H](O)[C@@H](O)c2ccc(O)cc2)NC(=O)[C@@H]2C[C@@H](O)CN2C(=O)[C@H]([C@@H](C)O)NC1=O | Candida tropicalis |  | ATCC 750, RPMI 1640, 0.165 M MOPS | 24 h, 35 °C, 100% inhibition endpoint | 0.1 µg/mL |
| TFFRLFNRGRRRRSVQWCA | Streptococcus gordonii | broth microdilution | peptide, ATCC 10558 | 24 h, 37 °C, planktonic, anaerobic | 49.8 ± 16.9 µg/mL |
| CCCCCCCCCCCCCC(=O)N/N=C/c1ccccc1 | Candida albicans, Aspergillus niger | fungal growth |  |  | 57.5 µM |
| CC(C)[C@H](NC(=O)[C@H](CO)NC(=O)[C@H](CCCNC(=N)N)NC(=O)[C@H](CCCNC(=N)N)NC(=O)[C@H](CCCNC(=N)N)NC(=O)[C@H](CCCNC(=N)N)NC(=O)CN)C(=O)N[C@@H](CCC(N)=O)C(=O)N[C@@H](Cc1c[nH]c2ccccc12)C(=O)N[C@@H](CS)C(=O)N[C@@H](C)C(=O)O | Streptococcus sanguinis | broth microdilution | ATCC 49295 | 24 h, planktonic anaerobic | 139 ± 62.9 µg/mL |
| C/C=C/C=C/C(=O)N/N=C/c1ccccc1Cl | Candida albicans, Aspergillus niger | fungal growth |  |  | 28.2 µM |
| LSTFFRLFNRSFTQGRRRRSVQWCA | Streptococcus sanguinis | broth microdilution | peptide, ATCC 49295 | 24 h, 37 °C, planktonic, anaerobic | 99.6 ± 33.7 µg/mL |
| CC(C)C[C@H](NC(=O)[C@H](C)NC(=O)[C@@H](N)CO)C(=O)N[C@@H](Cc1c[nH]cn1)C(=O)N[C@@H](CC(C)C)C(=O)N[C@H](C(=O)N[C@@H](CC(C)C)C(=O)N[C@@H](CCCNC(=N)N)C(=O)N[C@@H](CC(C)C)C(=O)N[C@@H](CCCNC(=N)N)C(=O)NCC(=O)NCC(=O)O)C(C)C | Bacillus megaterium |  | 899 | 37 °C, ≥90% viability decrease | 50 µM |
| STFFRLFNRSFTQGRRRRSVQWCA | Streptococcus gordonii | broth microdilution | peptide, ATCC 10558 | 24 h, 37 °C, planktonic, anaerobic | 49.8 ± 16.9 µg/mL |
| CC[C@H](C)[C@H](NC(=O)[C@H](CC(=O)O)NC(=O)[C@H](Cc1ccccc1)NC(=O)[C@H](CC(C)C)NC(=O)CN)C(=O)N[C@H](C(=O)N[C@@H](CCCCN)C(=O)N[C@@H](CCCCN)C(=O)N[C@H](C(=O)N[C@H](C(=O)NCC(=O)N[C@@H](C)C(=O)N[C@@H](CC(C)C)C(=O)NCC(N)=O)C(C)C)C(C)C)C(C)C | Klebsiella pneumoniae |  | ATCC 700603, CAMHB | 18 h, 37 °C | > 23 µM |
| magainin 2 | Cutibacterium acnes | broth microdilution | ATCC 6919 | 24 h, 37 °C | > 100 µg/mL |
| LSTFFRLFNGRRRRSVQWCA | Streptococcus sanguinis | broth microdilution | peptide, ATCC 49295 | 24 h, 37 °C, planktonic, anaerobic | 99.6 ± 33.7 µg/mL |
| CCCCCCCCCCCCCC(=O)N/N=C/c1ccccc1Cl | Candida albicans, Aspergillus niger | fungal growth |  |  | 75.9 µM |
| CSCC[C@H](N)C(=O)N[C@@H](CCCCN)C(=O)N[C@@H](CCCNC(=N)N)C(=O)N[C@@H](CCCNC(=N)N)C(=O)N[C@@H](CCCNC(=N)N)C(=O)N[C@@H](CCCCN)C(=O)N[C@@H](Cc1ccccc1)C(=O)N[C@@H](CO)C(=O)N[C@@H](Cc1c[nH]cn1)C(=O)N[C@@H](Cc1ccccc1)C(=O)N[C@@H](CO)C(=O)N[C@@H](Cc1ccccc1)C(=O)N[C@@H](CCCCN)C(=O)N[C@@H](CCCNC(=N)N)C(=O)NCC(=O)N[C@@H](Cc1ccc(O)cc1)C(=O)O | Micrococcus luteus |  |  |  | 4 µM |
| CC(C)C[C@H](NC(=O)[C@H](CCCNC(=N)N)NC(=O)[C@@H]1CCCN1C(=O)[C@H](CCCNC(=N)N)NC(=O)[C@@H]1CCCN1C(=O)[C@@H]1CCCN1C(=O)[C@H](CCCNC(=N)N)NC(=O)[C@@H]1CCCN1C(=O)[C@H](CCC(N)=O)NC(=O)[C@@H]1CCCN1C(=O)[C@H](CCCNC(=N)N)NC(=O)[C@H](Cc1ccc(O)cc1)NC(=O)[C@@H](NC(=O)[C@@H]1CCCN1C(=O)[C@H](CCCCN)NC(=O)[C@H](CC(N)=O)NC(=O)[C@H](CC(N)=O)NC(=O)CN)C(C)C)C(=O)O | Salmonella enterica serovar Typhimurium |  | SL1344, Mueller-Hinton broth | 18 h, 37 °C | 0.192 ± 0.044 µM |
| O=C(/C=C/c1ccccc1)N/N=C/c1ccccc1Cl | Candida albicans, Aspergillus niger | fungal growth |  |  | 17.4 µM |
| CC(C)C[C@H](NC(=O)[C@H](CCCNC(=N)N)NC(=O)[C@H](CC(C)C)NC(=O)[C@@H](NC(=O)[C@H](CC(C)C)NC(=O)[C@H](Cc1c[nH]cn1)NC(=O)[C@H](CC(C)C)NC(=O)[C@@H](NC(=O)[C@H](C)N)[C@@H](C)O)C(C)C)C(=O)N[C@@H](CCCNC(=N)N)C(=O)NCC(=O)NCC(=O)O | Bacillus megaterium |  | 899 | 37 °C, ≥90% viability decrease | 5 µM |
| O=C(N/N=C/c1ccccc1)c1cc([N+](=O)[O-])cc([N+](=O)[O-])c1 | Candida albicans, Aspergillus niger | fungal growth |  |  | 20 µM |
| TFFRLFNRSFTGRRRRSVQWCA | Streptococcus gordonii | broth microdilution | peptide, ATCC 10558 | 24 h, 37 °C, planktonic, anaerobic | 49.8 ± 16.9 µg/mL |
| CC[C@H](C)[C@H](NC(=O)[C@H](CCCNC(=N)N)NC(=O)[C@H](CCCCN)NC(=O)[C@H](CC(C)C)NC(=O)[C@H](CC(C)C)NC(=O)CN)C(=O)N[C@@H](CCCCN)C(=O)N[C@H](C(=O)N[C@@H](CC(C)C)C(=O)N[C@@H](CC(C)C)C(N)=O)[C@@H](C)O | Enterobacter aerogenes |  | ATCC 13048 | 18 to 20 h | > 32 µM |
| actinomycin Y3 | Micrococcus luteus | broth microdilution | ATCC 15307 | 16 to 48 h | 4.67 µg/mL |
| CC(C)C[C@H](NC(=O)[C@H](C)NC(=O)[C@H](CC(C)C)NC(=O)[C@@H](NC(=O)[C@H](CC(C)C)NC(=O)[C@H](Cc1c[nH]cn1)NC(=O)[C@H](CC(C)C)NC(=O)[C@@H](NC(=O)[C@@H](N)CO)[C@@H](C)O)C(C)C)C(=O)N[C@@H](CCCNC(=N)N)C(=O)NCC(=O)NCC(=O)O | Bacillus megaterium |  | 899 | 37 °C, ≥90% viability decrease | 100 µM |
| CC[C@H](C)[C@H](NC(=O)[C@@H]1CCCN1C(=O)[C@H](CCCNC(=N)N)NC(=O)[C@@H]1CCCN1C(=O)[C@@H]1CCCN1C(=O)[C@@H](NC(=O)[C@@H]1CCCN1C(=O)[C@H](CCCNC(=N)N)NC(=O)[C@@H]1CCCN1C(=O)[C@H](CC(C)C)NC(=O)[C@H](Cc1ccc(O)cc1)NC(=O)[C@H](CO)NC(=O)CNC(=O)[C@H](CCCCN)NC(=O)[C@H](CC(=O)O)NC(=O)[C@@H](N)C(C)C)[C@@H](C)O)C(=O)N[C@@H](Cc1ccc(O)cc1)C(=O)N[C@@H](CC(N)=O)C(=O)N[C@@H](CCCNC(=N)N)C(=O)N[C@@H](CC(N)=O)C(=O)O | Salmonella enterica serovar Typhimurium |  | SL1344, Mueller-Hinton broth | 18 h, 37 °C | 1.2 ± 0.278 µM |
| CC[C@H](C)[C@H](NC(=O)[C@H](C)N)C(=O)N[C@@H](CCCCN)C(=O)N[C@H](C(=O)N[C@@H](CCCNC(=N)N)C(=O)N[C@@H](CCCCN)C(=O)N[C@@H](CC(C)C)C(=O)N[C@@H](Cc1ccccc1)C(=O)N[C@@H](CCCCN)C(=O)N[C@@H](CCCCN)C(=O)N[C@@H](CC(C)C)C(=O)N[C@@H](CC(C)C)C(=O)N[C@@H](CCCNC(=N)N)C(N)=O)[C@@H](C)CC | Escherichia coli |  | ATCC 25922 | 1 h, 37 °C, non-dividing cells in PBS | 12.5 µg/mL |
| CCOC(=O)[C@]1(CS)N[C@H](C(=O)O)CS1 | Proteus mirabilis | broth microdilution | clinical isolate | compound at 100 mg/L, added: meropenem | 8 µg/mL |
| Cc1ccc(C(=O)N/N=C/c2ccccc2)cc1 | Candida albicans, Aspergillus niger | fungal growth |  |  | 24.5 µM |
| CC(C)C[C@H](NC(=O)[C@H](CCCCN)NC(=O)[C@H](C)NC(=O)[C@H](CC(C)C)NC(=O)[C@H](CCCCN)NC(=O)[C@H](CCCCN)NC(=O)[C@H](C)NC(=O)[C@H](CC(C)C)NC(=O)[C@H](CCCCN)NC(=O)[C@H](C)NC(=O)[C@H](CC(C)C)NC(=O)[C@@H](N)CCCCN)C(=O)N[C@@H](C)C(=O)N[C@@H](CCCCN)C(N)=O | Enterobacter aerogenes |  | ATCC 13048 | 18 to 20 h | > 32 µM |
